Assay results of several laboratories.
Compare with care: the assays were run in different laboratories. Values joined by “and” are separate records of one study, mostly repeats; a detail may differ. Numbers after ± are the reported error.
Sequence of UniProt P41743 (whole entry, looked up): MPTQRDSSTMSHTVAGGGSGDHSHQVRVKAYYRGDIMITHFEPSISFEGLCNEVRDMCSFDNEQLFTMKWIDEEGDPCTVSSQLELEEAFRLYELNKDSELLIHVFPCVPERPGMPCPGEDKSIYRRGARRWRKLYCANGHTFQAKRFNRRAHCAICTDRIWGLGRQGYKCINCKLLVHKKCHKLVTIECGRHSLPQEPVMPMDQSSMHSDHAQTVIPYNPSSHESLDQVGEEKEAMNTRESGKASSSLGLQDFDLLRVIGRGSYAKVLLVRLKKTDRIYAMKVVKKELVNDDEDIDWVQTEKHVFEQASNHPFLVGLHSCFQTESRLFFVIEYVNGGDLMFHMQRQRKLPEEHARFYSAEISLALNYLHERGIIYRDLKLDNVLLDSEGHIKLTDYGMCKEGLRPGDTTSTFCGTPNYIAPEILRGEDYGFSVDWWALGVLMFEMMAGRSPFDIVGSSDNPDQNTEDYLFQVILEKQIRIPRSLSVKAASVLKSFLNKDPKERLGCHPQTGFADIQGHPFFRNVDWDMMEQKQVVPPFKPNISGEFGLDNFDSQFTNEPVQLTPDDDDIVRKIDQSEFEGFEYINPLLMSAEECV
Sequence of UniProt Q00526 (whole entry, looked up): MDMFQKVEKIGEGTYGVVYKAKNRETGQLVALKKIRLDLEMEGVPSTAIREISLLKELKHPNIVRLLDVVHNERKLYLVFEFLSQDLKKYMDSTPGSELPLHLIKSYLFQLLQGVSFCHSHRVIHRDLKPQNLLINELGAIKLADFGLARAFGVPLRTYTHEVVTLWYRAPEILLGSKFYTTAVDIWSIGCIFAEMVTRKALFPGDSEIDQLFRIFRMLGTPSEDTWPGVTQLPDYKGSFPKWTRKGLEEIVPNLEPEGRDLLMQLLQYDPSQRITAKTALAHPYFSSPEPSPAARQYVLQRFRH

Structure (SMILES) | target or system | assay | system | conditions | scale | endpoint | result
CCCC[C@@H]1NC(=O)[C@H](Cc2ccc(O)cc2)NC(=O)[C@@H]2CCCN2C(=O)[C@H](CC(=O)O)NC(=O)[C@H](C)NC(=O)[C@H](Cc2ccccc2)NC(=O)[C@@H]2CSCCC(=O)N3CN(CN(C3)C(=O)CCSC[C@@H](C(=O)N[C@@H](C)C(N)=O)NC1=O)C(=O)CCSC[C@H](NC(C)=O)C(=O)N[C@@H](CC(C)(C)C)C(=O)N1CCC[C@H]1C(=O)N[C@@H](CCC(=O)O)C(=O)N[C@H](CCCCNC(=O)CCc1cn(CCOCCOCCOCCN(CCOCCOCCOCCC(=O)N[C@H]3CSCCC(=O)N4CN5CN(C4)C(=O)CCSC[C@H](NC(=O)[C@@H](CC(=O)O)NC(=O)[C@H](Cc4cccc6ccccc46)NC(=O)[C@@H]4CCCN4C3=O)C(=O)N[C@@H](CCSC)C(=O)N[C@@H](CCCCNC(=N)N)C(=O)N[C@@H](CC(=O)O)C(=O)N[C@@H](Cc3c[nH]c4ccccc34)C(=O)N[C@@H](CO)C(=O)N[C@@H]([C@@H](C)O)C(=O)N3CCC[C@H]3C(=O)N3C[C@H](O)C[C@H]3C(=O)N[C@@H](Cc3c[nH]c4ccccc34)C(=O)N[C@H](C(N)=O)CSCCC5=O)CCOCCOCCOCCn3cc(CCC(=O)NCCCC[C@H]4NC(=O)[C@H](CCC(=O)O)NC(=O)[C@@H]5CCCN5C(=O)[C@H](CC(C)(C)C)NC(=O)[C@@H](NC(C)=O)CSCCC(=O)N5CN6CN(C5)C(=O)CCSC[C@H](NC(=O)[C@H](Cc5ccc(O)cc5)NC(=O)[C@@H]5CCCN5C4=O)C(=O)N[C@@H](Cc4ccccc4)C(=O)N[C@@H](C)C(=O)N[C@@H](CC(=O)O)C(=O)N4CCC[C@H]4C(=O)N[C@@H](Cc4ccc(O)cc4)C(=O)N[C@@H](CCCC)C(=O)N[C@H](C(=O)N[C@@H](C)C(N)=O)CSCCC6=O)nn3)nn1)C(=O)N1CCC[C@H]1C(=O)N[C@@H](Cc1ccc(O)cc1)C(=O)N2 | – | ultracentrifugation | rat plasma | – | – | fraction unbound | 0.21
CN1Cc2cc(Cl)ccc2-n2c(nnc2C2CCN(c3cccc([18F])n3)CC2)C1 | – | – | C57BL/6 mouse male, lung | intravenous, 3.7 MBq, 15 min | – | tissue uptake | 5.24 ± 0.88 %ID/g
C[C@@H]1COCCN1c1nc(NCc2cccnc2C(F)(F)F)c2cccnc2n1 | – | – | human hepatocytes | – | – | intrinsic clearance | 3.4 µL/min/10⁶ cells
C/C(=N\OCCCN1CCCCC1)c1ccc(C(F)(F)F)cc1 | – | – | rhesus monkey | dose not given, after dosing | – | QRS interval | 42 ms and 40 ms
CCCC[C@H]1C(=O)N(C)[C@@H](CCCC)C(=O)N[C@@H](CCCNC(=O)CN2CCN(CC(=O)O)CCN(CC(=O)O)CCN(CC(=O)O)CC2)C(=O)N[C@H](C(=O)NCC(N)=O)CSCC(=O)N[C@@H](Cc2ccc(O)cc2)C(=O)N(C)[C@@H](C)C(=O)N[C@@H](CC(N)=O)C(=O)N2CCC[C@H]2C(=O)N[C@@H](Cc2c[nH]cn2)C(=O)N[C@@H](CC(C)C)C(=O)N(C)CC(=O)N[C@@H](Cc2c[nH]c3ccccc23)C(=O)N[C@@H](CO)C(=O)N[C@@H](Cc2c[nH]c3ccccc23)C(=O)N1C [gallium-68 labelled] | – | – | NOD/SCID mice, CHO-hPD-L1 xenograft, brain | 60 min, PBS pretreatment | – | tissue uptake | 0.32 ± 0.06 %ID/g
N#[11C]c1ccc(-c2csc(NN=C3CCCC3)n2)cc1 | – | – | C57BL/6 mouse, male | intravenous, 3 MBq, 5 min | – | uptake in testis | 1.74 ± 0.15 %ID/g
COc1ccccc1-c1n[nH]c2nc(NC3CCN(C(=O)Cc4ccc(F)cc4F)CC3)ncc12 | – | bead binding, competition bead pull-down, measured: LINJ.32.3110 | Leishmania donovani axenic amastigote extract | 10 µM | baseline: vehicle | relative abundance | 1.05
O=C1NC(=O)c2c1c1cc(F)c[n+]3c1c1c2c2cc(O)ccc2[n]1[Ru-4]312([N]=C=S)[S+]3CC[S+]1CC[S+]2CC3 (stereo not drawn) | Cyclin-dependent kinase 3, with cyclin E (CDK3, Homo sapiens, UniProt Q00526) | enzyme activity | – | 100 nM, human enzyme, together with: 10 µM ATP | baseline: untreated | remaining activity | 116%
CSCC[C@H](NC(=O)CNC(=O)[C@H](CCCCN)NC(=O)[C@H](CC(C)C)NC(=O)[C@@H]1CCCN1C(=O)[C@H](CO)NC(=O)[C@H](Cc1c[nH]cn1)NC(=O)[C@H](Cc1c[nH]c2ccccc12)NC(=O)[C@H](CCCNC(=N)N)NC(=O)[C@H](CC(C)C)NC(=O)[C@H](CCCNC(=N)N)NC(=O)[C@H](Cc1c[nH]c2ccccc12)NC(=O)[C@H](CS)NC(=O)CCCCCNC(=O)CN1CCN(CC(=O)O)CCN(CC(=O)O)CCN(CC(=O)O)CC1)C(=O)O [copper-64 labelled] | – | ex vivo biodistribution | C57BL/6J mice bearing B16-F10 tumours, liver | intravenous, 1.85 MBq, 30 h | – | tissue uptake | 16 %ID/g
C#Cc1c(F)ccc2cc(O)cc(-c3ncc4c(N5CC6CCC(C5)N6C(=O)OC(C)OC(=O)C(CC)CCCC)nc(OC[C@@]56CCCN5C[C@H](F)C6)nc4c3F)c12 (stereo partly drawn) | – | chemical stability | simulated intestinal fluid | 1 µM, 30 min | – | compound remaining | 100%
Cc1ccccc1-c1ccc(-c2nc(-c3ccc(CN(C)CCCC(=O)O)c([18F])c3)no2)cc1C(F)(F)F | – | – | rat, lung | 1 h | – | tracer uptake | 0.38 %ID/g
CC(C)[C@H]1NC(=O)C[C@H]2/C=C/CCSSC[C@@H](NC1=O)C(=O)N[C@H](Cc1cccc3ccccc13)C(=O)NCC(=O)O2 | PRKCI (Homo sapiens, UniProt P41743) | enzyme activity, inhibitor | – | 10 µM | – | inhibition | 3.4%
O=C1NC2(CC2)COc2ncc(F)cc2[C@H]2COCCN2c2ccn3ncc1c3n2 | – | – | Sprague-Dawley rat, female, serum | oral, 10 mg/kg/day, end of recovery, 4-week subacute toxicity | – | serum hepatic lipase activity | 3.5 ± 0.3 U/L
CC(C)[C@@H]1NC(=O)CNC(=O)[C@H](CC(N)=O)NC(=O)[C@H](CCCNC(=N)N)NC(=O)[C@H](Cc2ccc(O)cc2)NC(=O)[C@H](C(C)C)NC(=O)[C@@H](NC(=O)[C@@H](NC(=O)[C@H](CC(N)=O)NC(=O)[C@H](Cc2c[nH]c3ccccc23)NC(=O)[C@H](C)NC(=O)[C@H](Cc2ccccc2)NC(=O)CNC(=O)[C@H](CCCCN)NC(=O)[C@H](Cc2ccccc2)NC(=O)[C@H](Cc2ccccc2)NC(=O)[C@H](CCCCN)NC(=O)OCC2c3ccccc3-c3ccccc32)C(C)C)CSSC[C@@H](C(=O)N[C@@H](Cc2c[nH]cn2)C(=O)N[C@@H](CCCNC(=N)N)C(=O)N[C@@H](CCCNC(=N)N)C(=O)N[C@@H](C)C(=O)N[C@@H](CC(N)=O)C(N)=O)NC(=O)[C@H](C(C)C)NC(=O)[C@H](CCCNC(=N)N)NC1=O | – | HPLC | trypsin buffer | 0.50 h, 37 °C, together with: trypsin 1 % w/v | – | peptide remaining | 72.4% and 69.2% and 69.3%
COc1cnc2cccc(N3CCc4c(cc(Cn5ccnc5)cc4-c4cn(C)nc4C(F)(F)F)C3=O)c2c1 | – | – | BALB/c nude mice, MV4-11 xenograft | intraperitoneal, 100 mg/kg, day 24 | – | body weight | 23.2 g and 22.4 g and 22.6 g and 23 g and 23.1 g
CC(=O)NCCCC[C@@H]1NC(=O)[C@H](Cc2c[nH]c3c(C)cccc23)NC(=O)[C@H]([C@@H](C)O)NC(=O)[C@H](CC(N)=O)NC(=O)[C@@H](NC(C)=O)C(C)(C)SSC(C)(C)[C@@H](C(=O)N[C@@H](Cc2ccc(OCCN)cc2)C(=O)N[C@@H](Cc2ccc3ccccc3c2)C(=O)NC2(C(=O)N[C@@H](CCC(=O)O)C(=O)N[C@@H](CC(N)=O)C(=O)N[C@@H](Cc3cccnc3)C(=O)N(C)CC(N)=O)CCOCC2)NC1=O | – | – | cynomolgus monkey, skin | intravenous, 1 mg/kg | baseline: plasma concentration | tissue concentration | 68%
CSCC[C@@H]1NC(=O)[C@H](C(C)C)NC(=O)[C@H](CCCNC(=N)N)NC(=O)[C@@H]2CCCN2C(=O)CNC(=O)[C@@H](NC(=O)CNC(=O)[C@H](CO)NC(=O)CNC(=O)[C@H](CO)NC(=S)Nc2ccc(C[C@H]3CN(CC(=O)O)CCN(CC(=O)O)CCN3CC(=O)O)cc2)CSSC[C@@H](C(N)=O)NC(=O)[C@@H]2CCCN2C(=O)CNC(=O)[C@H](CCC(=O)O)NC(=O)[C@H](CC(=O)O)NC(=O)[C@H](CC(=O)O)NC(=O)CNC(=O)[C@H](CC(C)C)NC(=O)[C@H](Cc2c[nH]cn2)NC(=O)[C@H](CC(C)C)NC(=O)CNC(=O)[C@H](Cc2c[nH]cn2)NC1=O [copper-64 labelled] | – | dynamic PET | CD rat, myocardial infarction model, remote myocardium | intravenous, 18.5 MBq, 0 to 5 min | – | half-life | 2.6 ± 0.2 min
CC(C)(C)C(=O)OCOP(=O)(OCOC(=O)C(C)(C)C)C1CCCN(O)C1=O (stereo not drawn) | OVCAR-5 | – | – | – | – | TGI | 62.7 µM
CSCC[C@H](N)C(=O)N[C@@H](C)C(=O)N[C@@H](Cc1c[nH]c2ccccc12)C(=O)N[C@@H](Cc1c[nH]cn1)C(=O)N[C@@H](CC(=O)O)C(=O)N[C@@H](CC(=O)O)C(=O)N[C@@H](CCC(=O)O)C(=O)N[C@@H](CCC(=O)O)C(=O)N[C@@H](Cc1ccccc1)C(=O)N[C@@H](C)C(=O)N[C@@H](CCCNC(=N)N)C(=O)N[C@@H](CCCNC(=N)N)C(=O)N[C@@H](CCCNC(=N)N)C(=O)N[C@@H](CCCNC(=N)N)C(=O)NCCCCCC(=O)NCCCCC(NC(=O)CCCCCNC(=O)[C@H](CCCNC(=N)N)NC(=O)[C@H](CCCNC(=N)N)NC(=O)[C@H](CCCNC(=N)N)NC(=O)[C@H](CCCNC(=N)N)NC(=O)[C@H](C)NC(=O)[C@H](Cc1ccccc1)NC(=O)[C@H](CCC(=O)O)NC(=O)[C@H](CCC(=O)O)NC(=O)[C@H](CC(=O)O)NC(=O)[C@H](CC(=O)O)NC(=O)[C@H](Cc1c[nH]cn1)NC(=O)[C@H](Cc1c[nH]c2ccccc12)NC(=O)[C@H](C)NC(=O)[C@@H](N)CCSC)C(=O)NCCCCC(NC(=O)C(CCCCNC(=O)CCCCCNC(=O)[C@H](CCCNC(=N)N)NC(=O)[C@H](CCCNC(=N)N)NC(=O)[C@H](CCCNC(=N)N)NC(=O)[C@H](CCCNC(=N)N)NC(=O)[C@H](C)NC(=O)[C@H](Cc1ccccc1)NC(=O)[C@H](CCC(=O)O)NC(=O)[C@H](CCC(=O)O)NC(=O)[C@H](CC(=O)O)NC(=O)[C@H](CC(=O)O)NC(=O)[C@H](Cc1c[nH]cn1)NC(=O)[C@H](Cc1c[nH]c2ccccc12)NC(=O)[C@H](C)NC(=O)[C@@H](N)CCSC)NC(=O)CCCCCNC(=O)[C@H](CCCNC(=N)N)NC(=O)[C@H](CCCNC(=N)N)NC(=O)[C@H](CCCNC(=N)N)NC(=O)[C@H](CCCNC(=N)N)NC(=O)[C@H](C)NC(=O)[C@H](Cc1ccccc1)NC(=O)[C@H](CCC(=O)O)NC(=O)[C@H](CCC(=O)O)NC(=O)[C@H](CC(=O)O)NC(=O)[C@H](CC(=O)O)NC(=O)[C@H](Cc1c[nH]cn1)NC(=O)[C@H](Cc1c[nH]c2ccccc12)NC(=O)[C@H](C)NC(=O)[C@@H](N)CCSC)C(N)=O (stereo partly drawn) | – | – | C57BL/6 mouse female, brain | dose not given, 6 h | baseline: total | mean tissue distribution | 0.65%
CC[C@H](C)[C@H](NC(=O)[C@H](CCCCN)NC(=O)CNC(=O)[C@H](CC(C)C)NC(=O)[C@H](Cc1ccccc1)NC(=O)[C@H](CCCCN)NC(=O)[C@H](CO)NC(=O)[C@H](Cc1ccccc1)NC(=O)[C@H](Cc1c[nH]c2ccccc12)NC(=O)[C@H](CCC(N)=O)NC(=O)[C@@H](NC(=O)[C@H](Cc1ccccc1)NC(=O)CCCCCNC(=O)CN1CCN(CC(=O)O)CCN(CC(=O)O)CCN(CC(=O)O)CC1)C(C)C)C(=O)N[C@@H](CCC(=O)O)C(=O)N1CCC[C@H]1C(=O)N[C@@H](CC(=O)O)C(=O)N[C@H](C(=O)N[C@@H](CO)C(=O)N[C@@H](CCC(N)=O)C(=O)N[C@H](C(=O)N[C@@H](CCC(N)=O)C(=O)N[C@@H](CC(=O)O)C(=O)N1CCC[C@H]1C(=O)N[C@@H](CC(N)=O)C(=O)N[C@@H](CC(=O)O)C(=O)N[C@@H](CCC(N)=O)C(=O)N[C@@H](Cc1ccc(O)cc1)C(=O)N[C@@H](CCC(=O)O)C(=O)N1CCC[C@H]1C(=O)N[C@@H](Cc1ccccc1)C(=O)O)C(C)C)C(C)C [copper-64 labelled] | – | – | C57BL/6 mice, male, tumour-free, heart | 4 h | – | tissue uptake | 2.62 ± 0.2 %ID/g
CC(=O)c1ncn2c(=O)n(C)nnc12 | – | – | mice | intravenous, 125 mg/kg single dose, 7 days | – | body weight | 31 ± 1 g

Repeated from above:
Structure (SMILES) | target or system | assay | system | conditions | scale | endpoint | result
N#[11C]c1ccc(-c2csc(NN=C3CCCC3)n2)cc1 | – | – | C57BL/6 mouse, male | intravenous, 3 MBq, 5 min | – | uptake in testis | 1.74 ± 0.15 %ID/g
COc1ccccc1-c1n[nH]c2nc(NC3CCN(C(=O)Cc4ccc(F)cc4F)CC3)ncc12 | – | bead binding, competition bead pull-down, measured: LINJ.32.3110 | Leishmania donovani axenic amastigote extract | 10 µM | baseline: vehicle | relative abundance | 1.05
O=C1NC(=O)c2c1c1cc(F)c[n+]3c1c1c2c2cc(O)ccc2[n]1[Ru-4]312([N]=C=S)[S+]3CC[S+]1CC[S+]2CC3 (stereo not drawn) | Cyclin-dependent kinase 3, with cyclin E (CDK3, Homo sapiens, UniProt Q00526) | enzyme activity | – | 100 nM, human enzyme, together with: 10 µM ATP | baseline: untreated | remaining activity | 116%
